Measured values from different studies.
Compare with care: the assays were run in different laboratories. ± gives the spread as reported.
Chain of UniProt P49116 (whole entry, looked up): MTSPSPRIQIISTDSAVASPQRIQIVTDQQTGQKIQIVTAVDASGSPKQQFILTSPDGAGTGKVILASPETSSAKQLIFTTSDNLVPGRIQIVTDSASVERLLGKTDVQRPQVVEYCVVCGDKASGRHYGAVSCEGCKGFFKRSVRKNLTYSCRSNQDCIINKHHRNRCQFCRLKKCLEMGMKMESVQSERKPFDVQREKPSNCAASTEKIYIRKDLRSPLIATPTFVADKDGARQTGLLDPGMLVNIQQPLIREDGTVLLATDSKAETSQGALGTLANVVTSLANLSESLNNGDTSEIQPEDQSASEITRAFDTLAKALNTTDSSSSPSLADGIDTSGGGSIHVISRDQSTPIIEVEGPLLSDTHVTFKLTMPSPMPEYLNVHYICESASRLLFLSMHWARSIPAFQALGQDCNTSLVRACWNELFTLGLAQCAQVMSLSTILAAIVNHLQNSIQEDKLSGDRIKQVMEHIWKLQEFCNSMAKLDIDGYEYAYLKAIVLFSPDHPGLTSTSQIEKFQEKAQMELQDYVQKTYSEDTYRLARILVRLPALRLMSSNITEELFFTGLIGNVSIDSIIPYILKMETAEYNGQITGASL

O=C(O)c1ccc(O)c(OS(=O)(=O)O)c1 — plasma concentration (human plasma; median): 49.9 nM
O=C1[C@H](CC[C@H](O)c2ccc(F)cc2)[C@@H](c2ccc(O)cc2)N1c1ccc(F)cc1 — Kd (Nuclear receptor subfamily 2 group C member 2, ligand-binding domain (Homo sapiens, UniProt P49116); SPR imaging): 536 nM
CCOCc1nc(O)c(-c2nnc(Cc3ccc(Cl)cn3)o2)c(O)c1-c1c(OC)cccc1OC — plasma concentration (rat, anaesthetised, cannulated, plasma; intravenous infusion, 1 µg/kg/min, 15 min): 104 nM
O=S(=O)(O)Oc1cc(CCO)ccc1O — plasma concentration (human plasma; median): 258 nM
CC(=O)NCc1cc2c(cc1F)C(=O)N(C1CCC(=O)NC1=O)C2 (stereo not shown) — plasma concentration (cynomolgus monkey, male; oral, 0.3 mg/kg parent drug, 4 h): 0.18 ng/mL
O=C(O)c1c(O)cccc1O — plasma concentration (human plasma; mean, both sexes): 7580 nM
C[C@H](CCC(=O)NCC(=O)O)[C@H]1CC[C@H]2[C@@H]3CC[C@@H]4C[C@H](O)CC[C@]4(C)[C@H]3C[C@H](O)[C@]12C — plasma concentration (women, T/T genotype, plasma; dose not given, geometric mean): 109 ng/mL
O=C(O)CCc1cccc(O)c1 — plasma concentration (human plasma; median): 1210 nM
COc1cccc(-c2n[nH]c(SCc3ccccn3)n2)c1OC — plasma concentration (Sprague-Dawley rats, both sexes; oral dietary, 10 mg/kg/day, day 90, 24 h): 161 ng/mL
NCc1cc2c(cc1F)C(=O)N(C1CCC(=O)NC1=O)C2 (stereo not shown) — plasma concentration (cynomolgus monkey; oral, 0.3 mg/kg, 12 h): not detected
O=C1CCc2ccc(OCCCCN3CCN(c4cccc(Cl)c4Cl)CC3)cc2N1 — plasma concentration (patients, plasma, steady state; oral or long-acting depot injection, dose not given, CYP2D6 NM, median): 107 ng/mL
CC(C)C[C@H](NC(=O)[C@@H](Cc1c[nH]c2ccccc12)NC(=O)[C@H](Cc1ccc(O)cc1)NC(=O)[C@H](CO)NC(=O)[C@H](Cc1c[nH]c2ccccc12)NC(=O)[C@H](Cc1c[nH]cn1)NC(=O)[C@@H]1CCC(=O)N1)C(=O)N[C@@H](CCCNC(=N)N)C(=O)N1CCC[C@H]1C(=O)NCC(N)=O — plasma concentration (Chinese boys, precocious puberty, plasma; intramuscular, 22.5 mg, 8640 h, month 12, mean): 0.0224 ng/mL
CCOC(=O)Nc1cc(-c2ccc(C)c(NS(C)(=O)=O)c2)nn2c(C)nnc12 — viability (OCI-Ly1; 1 µM, 120 h): 3.54%
O=C(O)CNC(=O)c1cccc(O)c1 — plasma concentration (human plasma; median): 6490 nM
Cn1cc([C@H]2C[C@H]3CSC(N)=N[C@@]3(c3ccc(F)cc3F)CO2)cn1 — plasma concentration (male 129/SVE mouse, plasma; subcutaneous, 3 mg/kg, 9 h): 6 nM
O=Cc1cc2c(cc1F)C(=O)N(C1CCC(=O)NC1=O)C2 (stereo not shown) — plasma concentration (cynomolgus monkey, male; oral, 0.3 mg/kg parent drug, 1 h): 0.3 ng/mL
Nc1nccc2c1ncn2[C@@H]1C=C(CO)[C@@H](O)[C@H]1O — viability (OCI-Ly1; 0.5 µM, 120 h): 8.3%
Cc1c(C(=O)O)ccc2c3n(nc12)[C@@H]1[C@H](C3)N(CC2CC2)[C@@]2(C(=O)Nc3cc(Cl)ccc32)[C@H]1c1cccc(Cl)c1F — plasma concentration (female BALB/c nude mice, SJSA-1 xenograft, plasma; oral, 1 mg/kg twice daily, 4 h): 972 nM
COc1cccc(O)c1OS(=O)(=O)O — plasma concentration (human plasma; mean): 5690 nM
O=C1CCC(N2Cc3cc(CO)c(F)cc3C2=O)C(=O)N1 (stereo not shown) — plasma concentration (cynomolgus monkey, male; oral, 0.3 mg/kg parent drug, 2 h): 1.02 ± 0.64 ng/mL
CC(C)C[C@H](NC(=O)C[C@H](O)[C@H](CC(C)C)NC(=O)[C@H](Cc1c[nH]cn1)NC(=O)CNC(=O)[C@@H](NC(=O)[C@H](C)NC(=O)[C@H](Cc1c[nH]c2ccccc12)NC(=O)[C@H](CCC(N)=O)NC(=O)[C@@H](Cc1ccccc1)NC(=O)COCCOCCNC(=O)CCC(C(=O)O)N1CCN(CC(=O)O)CCN(CC(=O)O)CC1)C(C)C)C(N)=O (stereo partly shown) [lutetium-177 labelled] — tissue uptake (female BALB/c nu/nu mice, intestines; intravenous, 50 pmol, 1 h): 4 ± 3 %ID/g
COc1ccccc1OCC(O)CN1CCN(CC(=O)Nc2c(C)cccc2C)CC1 (stereo not shown) — plasma concentration (human, plasma; oral, 12 mg/kg/day every 12 h, 1 h post-dose): 1180 ng/mL
C[C@H](CCC(=O)NCC(=O)O)[C@H]1CC[C@H]2[C@@H]3[C@H](O)C[C@@H]4C[C@H](O)CC[C@]4(C)[C@H]3CC[C@]12C — plasma concentration (men, T/C genotype, plasma; dose not given, geometric mean): 441 ng/mL
O=C(O)CCc1cccc(O)c1O — plasma concentration (human plasma; mean): 943 nM
Cc1c(-c2ccc(N3CCc4cccc(C(=O)Nc5nc6ccccc6s5)c4C3)nc2C(=O)O)cnn1CC12CC3(C)CC(C)(C1)CC(OCCNCC[C@H](O)CO)(C3)C2 — plasma concentration (anaesthetized male beagle dog; iv infusion, 0.1 mg/kg/min, 45 min): < 4 ng/mL

Excerpt of the above:
CCOCc1nc(O)c(-c2nnc(Cc3ccc(Cl)cn3)o2)c(O)c1-c1c(OC)cccc1OC — plasma concentration (rat, anaesthetised, cannulated, plasma; intravenous infusion, 1 µg/kg/min, 15 min): 104 nM
